{"data": "Experimental data pooled from the literature", "note": "Each numbered part is a random draw from the data of one study; scales do not carry over between parts. Changes are numbered by the printed parent chain."}
{"data": "Series 1", "target": "CCNB1, cyclin fold, Cln2 fusion (human)", "technique": "yeast growth competition, sequencing", "medium": "yeast", "setting": "weak parent motif", "relative to": "not given", "reading": "higher = stronger binding", "starting sequence": "GMNC docking peptide (human); KNAKRNLSSEFAN"}
{"Variant": "KNAYRNLSSEFAN [K4Y]", "normalised enrichment score": 0.416}
{"Variant": "KEAKRNLSSEFAN [N2E]", "normalised enrichment score": 0.43}
{"Variant": "KNAKRNLSREFAN [S9R]", "normalised enrichment score": 0.643}
{"Variant": "KVAKRNLSSEFAN [N2V]", "normalised enrichment score": 0.123}
{"Variant": "KNADRNLSSEFAN [K4D]", "normalised enrichment score": -0.303}
{"Variant": "KNAKRNHSSEFAN [L7H]", "normalised enrichment score": 0.418}
{"Variant": "KNAKRYLSSEFAN [N6Y]", "normalised enrichment score": -0.0475}
{"data": "Series 2", "target": "ABI1, truncated, D143A, DHFR fusion (Arabidopsis thaliana)", "technique": "DHFR PCA, deep sequencing", "medium": "yeast", "setting": "methotrexate growth selection, single substitutions", "with": "(+)-ABA 200 µM", "relative to": "wild-type fitted maximum", "reading": "higher = stronger binding", "starting sequence": "PYL1, truncated, DHFR fusion (Arabidopsis thaliana); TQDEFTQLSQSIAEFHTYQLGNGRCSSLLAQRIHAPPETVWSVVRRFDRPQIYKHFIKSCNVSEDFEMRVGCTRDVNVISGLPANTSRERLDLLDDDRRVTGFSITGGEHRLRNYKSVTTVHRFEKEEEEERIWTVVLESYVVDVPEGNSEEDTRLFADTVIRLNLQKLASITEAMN; partner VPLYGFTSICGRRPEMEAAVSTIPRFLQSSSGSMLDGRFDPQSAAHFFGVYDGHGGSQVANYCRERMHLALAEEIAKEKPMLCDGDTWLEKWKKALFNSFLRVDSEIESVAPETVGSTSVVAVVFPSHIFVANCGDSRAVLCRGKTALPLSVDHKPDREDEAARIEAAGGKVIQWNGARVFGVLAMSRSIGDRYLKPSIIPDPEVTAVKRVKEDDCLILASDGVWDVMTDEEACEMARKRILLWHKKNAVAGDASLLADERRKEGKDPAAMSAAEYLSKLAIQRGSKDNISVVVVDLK"}
{"Variant": "E129R", "relative binding score [%]": 100}
{"Variant": "C60I", "relative binding score [%]": 84.9}
{"Variant": "T73S", "relative binding score [%]": 100}
{"Variant": "S26P", "relative binding score [%]": 22.9}
{"Variant": "L94M", "relative binding score [%]": 103}
{"Variant": "L20Q", "relative binding score [%]": 101}
{"Variant": "E125Q", "relative binding score [%]": 107}
{"data": "Series 3", "target": "Ras GTPase-activating protein-binding protein 1, RRM domain (G3BP1, Homo sapiens, UniProt Q13283)", "technique": "RNA Bind-n-Seq", "molecule type": "RNA", "medium": "in vitro", "tested at": "1 µM", "setting": "whole 134-nt RNA, ends assumed", "with": "150 mM KCl", "relative to": "input library", "reading": "higher = stronger binding", "constant ends, left off below": "GGGAGUUCUACAGUCCGACGAUC … UGGAAUUCUCGGGUGUCAAGG", "UniProt Q13283, sequence (whole entry, looked up)": "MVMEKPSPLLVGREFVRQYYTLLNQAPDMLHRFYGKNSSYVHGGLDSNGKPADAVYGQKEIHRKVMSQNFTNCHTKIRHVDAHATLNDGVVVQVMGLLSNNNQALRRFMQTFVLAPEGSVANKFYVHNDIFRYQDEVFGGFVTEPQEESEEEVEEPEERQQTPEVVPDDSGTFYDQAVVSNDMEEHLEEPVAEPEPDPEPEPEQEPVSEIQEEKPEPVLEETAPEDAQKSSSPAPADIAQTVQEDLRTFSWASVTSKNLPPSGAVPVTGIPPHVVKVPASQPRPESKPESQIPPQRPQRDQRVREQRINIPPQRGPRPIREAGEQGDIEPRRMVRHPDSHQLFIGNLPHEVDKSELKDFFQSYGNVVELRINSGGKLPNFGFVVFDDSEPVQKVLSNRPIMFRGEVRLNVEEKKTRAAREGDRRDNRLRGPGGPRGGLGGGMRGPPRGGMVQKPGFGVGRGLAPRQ"}
{"Strand": "GUCCUGUGCUACACAUCGUAUGUACCGAAUCAAAUUUAAAUUUUUUUAAAUUUUUAAAAAAGUAUUAUGUUACGCCGUUCGGAUCUGCAC", "log2 enrichment": -0.71}
{"Strand": "GCAGGAAGUAAAAACAAAUGGAAAUGCUUCGGAUAGUGGCAGGGGUGGGGUUUGCUAAGGAAAGGGUGGGAUGGGAGUGGGUAAAGAGUU", "log2 enrichment": 1.55}
{"Strand": "ACCAUGCAGGUGGGCAUCUUUGGGAAGUGGGGCAAGGGGGGGAUAGGGAGGGGGGUAACACUUUGGGAACAGGAGGUCCCAGGUCGUUUC", "log2 enrichment": 0.977}
{"Strand": "CAAGUCCUGUGCUACACAUCGUAUGUACCGAAUCAAACCCAAACCCAAACCCAAAAAAGUAUUAUGUUACGCCGUUCGGAUCUGCACUUC", "log2 enrichment": -0.257}
{"Strand": "CACAGACAACACGCACCCACACAGACACCGAGGGAAGGGGUUGGGAUGGGGACAGGGUGCACAGCAGGGCGGGGUAGGACCCCAGCCCCU", "log2 enrichment": 0.0779}
{"Strand": "UCCCGGGCGCUAGCCCACCUCCCACCCGCCUCUUGGCUCCUCUCCUCUAGGCCGUCGCUUUCGGGUUCUCUCAUCGCUUCGUCGUUCGCC", "log2 enrichment": -0.256}
{"data": "Further values, each from its own experiment"}
{"Molecule": "PhoQ, residues 284 288 289 292 302 303 TLSLKA", "target": "PhoP, residues 12 14 15 18 19 HLGGL (Escherichia coli, UniProt P23836)", "test": "Sort-seq, refers to: YFP reporter", "system": "E. coli", "conditions": "PhoQ-PhoP variant library, with: 10 µM Mg2+", "scale": "relative to: high Mg2+ state, higher = stronger signaling", "quantity": "fold induction", "value": 8.86}
{"note": "Repeated from above (series 3):"}
{"Strand": "ACCAUGCAGGUGGGCAUCUUUGGGAAGUGGGGCAAGGGGGGGAUAGGGAGGGGGGUAACACUUUGGGAACAGGAGGUCCCAGGUCGUUUC", "log2 enrichment": 0.977}
{"Strand": "CAAGUCCUGUGCUACACAUCGUAUGUACCGAAUCAAACCCAAACCCAAACCCAAAAAAGUAUUAUGUUACGCCGUUCGGAUCUGCACUUC", "log2 enrichment": -0.257}
{"Strand": "CACAGACAACACGCACCCACACAGACACCGAGGGAAGGGGUUGGGAUGGGGACAGGGUGCACAGCAGGGCGGGGUAGGACCCCAGCCCCU", "log2 enrichment": 0.0779}
